# Results from different studies.
# A part holds a random share of what one study measured. Substitutions count along the parent as printed.

# Series 1 — technique: aptamer microarray, sandwich; molecule type: DNA with 2'F-ANA; matrix: in vitro; concentration: 200 nM; added: Cy3 exosite-II aptamer, 400 nM; direction: higher = stronger binding; sequence: GGTTGGTGTGGTTGG
# Target: Prothrombin, mature alpha-thrombin (F2, Homo sapiens, UniProt P00734)
# Notes: whole 15-mer aptamer, many near background
Modification,mean fluorescence intensity
2'F-ANA at 4 6 7 10 13,65.4 a.u.
2'F-ANA at 1 2 5 6 7 8 11 12 15,110 a.u.
2'F-ANA at 1 2 3 5 8 9 11 12 14,53.7 a.u.
2'F-ANA at 1 6 7 8 10 11 12 14,54.6 a.u.
2'F-ANA at 1 2 3 8 9 12 14 15,102 a.u.
2'F-ANA at 1 4 5 6 8 9 10 13 15,48.4 a.u.
2'F-ANA at 2 3 5 8 10 11 14,125 a.u.
2'F-ANA at 2 4 5 8 11 13 15,58.1 a.u.
2'F-ANA at 1 4 9 12 13 14,60.7 a.u.
2'F-ANA at 1 3 4 5 6 7 9 10 11 12 13 14,49 a.u.
2'F-ANA at 4 7 10 12 13,105 a.u.
2'F-ANA at 1 5 6 7 9 11 12 13 14,62 a.u.
2'F-ANA at 2 3 6 8 10 11 12 14,261 a.u.
2'F-ANA at 1 4 5 6 14,45.2 a.u.
2'F-ANA at 3 4 6 8 12,1010 a.u.
2'F-ANA at 2 3 4 6 7 8 11 13 14 15,302 a.u.
2'F-ANA at 1 3 4 5 7 8 9 10 13 14 15,51.7 a.u.
2'F-ANA at 1 4 8 12 14,62.6 a.u.
2'F-ANA at 1 3 4 5 6 8 11 15,87.8 a.u.
2'F-ANA at 2 3 5 6 7 9 12,171 a.u.
2'F-ANA at 2 3 5 6 7 8 11 12,194 a.u.
2'F-ANA at 1 4 5 7 9 10 11 12 14 15,52.5 a.u.
2'F-ANA at 2 4 5 7 9 10 11 12 13 15,52.6 a.u.
2'F-ANA at 1 2 5 6 11 13 14 15,49.7 a.u.
2'F-ANA at 1 3 4 6 7 10,61.6 a.u.

# Series 2 — technique: RNA Bind-n-Seq; molecule type: RNA; matrix: in vitro; concentration: 200 nM; notes: whole 134-nt RNA, ends assumed; added: 150 mM KCl; relative to: input library; direction: higher = stronger binding
# Target: Fragile X messenger ribonucleoprotein 1, C-terminal low-complexity region (Fmr1, Mus musculus, UniProt P35922)
# Constant ends, left off below: GGGAGUUCUACAGUCCGACGAUC … UGGAAUUCUCGGGUGUCAAGG
Sequence,log2 enrichment
UGUGCUACACAUCGUAUGUACCGAAUCGGGGCCCCCCCGGGCCCCCCCGGGGCCCCCCCGGGAAAGUAUUAUGUUACGCCGUUCGGAUCU,-1.54
CUCAAGUCCUGUGCUACACAUCGUAUGUACCGAAUCGGAAAGGAAAAAGGUGGAAAGUAUUAUGUUACGCCGUUCGGAUCUGCACUUCCA,-0.242
UGGGAGGUGGAUUUUGUUUAUUUUUUUAGCUCAUUUCCAGGGGUGGGAAUUUUUUUUUAAUAUGUGUCAUGACUAAAGUUGUUUUUGAAA,0.546
AGUCCUGUGCUACACAUCGUAUGUACCGAAUCGGUUUUUGGGGUUUUUGGUUUUUGGGAAAGUAUUAUGUUACGCCGUUCGGAUCUGCAC,-0.393
AGUCCUGUGCUACACAUCGUAUGUACCGAAUCGGUUUUUUUGGAAAGGUUUUUUUGGAAAGUAUUAUGUUACGCCGUUCGGAUCUGCACU,-1.34
CAAGUCCUGUGCUACACAUCGUAUGUACCGAAUCGGAAAAAAAGGAAAGGAAAGGAAAGUAUUAUGUUACGCCGUUCGGAUCUGCACUUC,-0.917
AGUCCUGUGCUACACAUCGUAUGUACCGAAUCGGGUGGGUUUUUUUGGGUUUUUGGGAAAGUAUUAUGUUACGCCGUUCGGAUCUGCACU,0.438
CUCAAGUCCUGUGCUACACAUCGUAUGUACCGAAUCGGAAAAAGGUUUGGUGGAAAGUAUUAUGUUACGCCGUUCGGAUCUGCACUUCCA,-0.56
UGGCCCUGGUGGCAUGCGGGGAGGAAGAGGUGGCCUCAUGGAUCGUGGUGGUCCCGGUGGAAUGUUCAGAGGUGGCCGUGGUGUAGACAG,0.13
UGGGAGGUGGAUUUUGUUUAUUUUUUUAGCUCAUUUCCAGGGGUGGGAAUUUUUUUUUAAAAUGUGUCAUGAAUAAAGUUGUUUUUGAAA,0.1
UCAAGUCCUGUGCUACACAUCGUAUGUACCGAAUCGGGGUGGGGAGGGGAGGGGAAAGUAUUAUGUUACGCCGUUCGGAUCUGCACUUCC,1.08
UCCUCAAGUCCUGUGCUACACAUCGUAUGUACCGAAUCGGGCGGGGCGGCGGAAAGUAUUAUGUUACGCCGUUCGGAUCUGCACUUCCAG,0.0691
AAGUCCUGUGCUACACAUCGUAUGUACCGAAUCAAAUUUAAAUUUAAAUUUUUAAAAAAGUAUUAUGUUACGCCGUUCGGAUCUGCACUU,-1.13
CAAGUCCUGUGCUACACAUCGUAUGUACCGAAUCGGGAGGGUUUUUUUGGGUGGGAAAGUAUUAUGUUACGCCGUUCGGAUCUGCACUUC,0.703

# Series 3 — technique: universal PBM; molecule type: double-stranded DNA, one strand shown; matrix: in vitro; concentration: 600 nM; direction: higher = stronger binding
# Target: Sal-like protein 4, full length isoform A (SALL4, Homo sapiens, UniProt Q9UJQ4, residues 1-1053)
# Sequence of UniProt Q9UJQ4 (whole entry, looked up): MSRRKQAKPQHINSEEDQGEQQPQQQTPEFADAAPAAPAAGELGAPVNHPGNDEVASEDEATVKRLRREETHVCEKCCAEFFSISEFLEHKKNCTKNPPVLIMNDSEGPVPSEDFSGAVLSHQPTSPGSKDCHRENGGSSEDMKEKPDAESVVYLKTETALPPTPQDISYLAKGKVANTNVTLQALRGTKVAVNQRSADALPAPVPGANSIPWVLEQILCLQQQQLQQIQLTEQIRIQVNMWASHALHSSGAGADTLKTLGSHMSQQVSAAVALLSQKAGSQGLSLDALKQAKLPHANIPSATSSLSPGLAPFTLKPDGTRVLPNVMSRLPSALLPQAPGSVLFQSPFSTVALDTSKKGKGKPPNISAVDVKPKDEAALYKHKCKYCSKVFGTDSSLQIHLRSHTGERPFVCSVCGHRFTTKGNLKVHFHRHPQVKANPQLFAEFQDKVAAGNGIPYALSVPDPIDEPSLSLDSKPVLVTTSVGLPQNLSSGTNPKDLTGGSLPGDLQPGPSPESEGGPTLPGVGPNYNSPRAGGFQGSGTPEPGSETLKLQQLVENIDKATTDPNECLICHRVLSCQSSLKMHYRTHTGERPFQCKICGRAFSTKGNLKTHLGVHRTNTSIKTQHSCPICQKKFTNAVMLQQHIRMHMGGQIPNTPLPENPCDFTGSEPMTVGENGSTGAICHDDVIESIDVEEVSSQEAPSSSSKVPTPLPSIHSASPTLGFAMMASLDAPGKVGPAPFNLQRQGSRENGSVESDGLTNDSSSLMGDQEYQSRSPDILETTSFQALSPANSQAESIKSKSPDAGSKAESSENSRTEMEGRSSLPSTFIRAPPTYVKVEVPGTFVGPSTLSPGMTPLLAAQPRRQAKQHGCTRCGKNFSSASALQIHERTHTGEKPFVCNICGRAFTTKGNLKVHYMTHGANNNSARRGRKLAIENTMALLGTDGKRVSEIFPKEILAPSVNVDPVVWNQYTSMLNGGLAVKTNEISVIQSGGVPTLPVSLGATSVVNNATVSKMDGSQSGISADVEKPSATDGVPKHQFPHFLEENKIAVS
# Notes: 8-mer, flanks averaged, mean of replicates
Sequence,E-score
ACCGAAGA,0.0766
AGGAAAAG,0.196
GGCGCATA,0.00429
AGCGTGAA,-0.0278
CCTTTTAG,-0.0716
ACAACGTC,-0.0992
AACAGATT,0.117
CTCCGGAA,-0.0825
ACCACACA,0.0433
GACGATGC,-0.162
GCACCCCC,-0.36
GACCACGC,-0.216
ACTGGTTA,0.159
CCCTAGGC,-0.234
AAGGCCGG,-0.242
AGGAAGGA,0.0777
GTACTCAC,0.015
ACTTGTCG,-0.00043
ACACGAGG,-0.18
CCAAGTGG,-0.137
GATCGCAA,0.0159
AAGGGATA,0.192
ACTCCGTC,-0.0849
CATTAATC,0.234

# Series 4 — technique: DHFR PCA, deep sequencing; matrix: yeast; added: (+)-ABA 58 µM; relative to: wild-type fitted maximum; direction: higher = stronger binding
# Target: ABI1, truncated, D143A, DHFR fusion (Arabidopsis thaliana)
# Notes: methotrexate growth selection, single substitutions
# Parent: PYL1, truncated, DHFR fusion (Arabidopsis thaliana); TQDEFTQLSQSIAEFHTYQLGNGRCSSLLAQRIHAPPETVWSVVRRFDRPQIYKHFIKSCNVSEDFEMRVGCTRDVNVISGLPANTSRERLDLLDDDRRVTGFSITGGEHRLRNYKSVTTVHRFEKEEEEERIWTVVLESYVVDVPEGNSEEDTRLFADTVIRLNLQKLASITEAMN; partner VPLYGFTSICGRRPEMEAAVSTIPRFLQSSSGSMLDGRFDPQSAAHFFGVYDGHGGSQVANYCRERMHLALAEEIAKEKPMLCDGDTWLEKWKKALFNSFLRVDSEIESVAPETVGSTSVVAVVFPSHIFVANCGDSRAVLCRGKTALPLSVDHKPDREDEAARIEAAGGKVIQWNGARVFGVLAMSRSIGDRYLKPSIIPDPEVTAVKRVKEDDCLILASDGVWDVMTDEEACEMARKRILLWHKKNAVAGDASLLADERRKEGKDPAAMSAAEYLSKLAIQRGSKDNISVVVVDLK
Variant,relative binding score
P146Y,10.8%
E129P,98%
G102F,-5.78%
L112D,-6.11%
S171H,84.9%
R111V,9.38%
S87L,0.196%
I162Y,9.91%
R24C,74.4%
S42P,66.7%
S80D,8.46%
V142K,55.8%
T86P,-4.51%
D96C,26%
V161A,13.6%
V137W,-0.946%
D159E,76.6%
T101C,85.2%
N114S,57.4%

# Series 5 — technique: DNA-protein interaction ELISA; molecule type: double-stranded DNA, one strand shown; matrix: in vitro, bacterial lysate; concentration: not given; notes: whole dsDNA probe, crude lysate protein; relative to: highest signal in screen; direction: higher = stronger binding
# Target: Probable WRKY transcription factor 50, DNA-binding domain (WRKY50, Arabidopsis thaliana, UniProt Q8VWQ5, residues 99-173)
# Target sequence (chain): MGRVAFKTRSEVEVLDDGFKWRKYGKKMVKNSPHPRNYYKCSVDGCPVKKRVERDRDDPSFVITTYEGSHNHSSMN
Sequence,relative absorbance
AAAAAATATCGGGCACGGTCTTGTCTAAAA,40.5 % of maximum
AAAAAAAGCTTCTATAGCTCCATGGAAAA,26.7 % of maximum
AAAAAAAAATCGAATTTGGACTTCCGAAAA,22.3 % of maximum
AAAAAAGTGCGTTCACGCTTGTATCTAAAA,16.6 % of maximum
AAAAAAGCCCCTTGCGCCTCTCTACCAAAA,11.3 % of maximum
AAAAAACTGGATGCGCTCACCAGTTAAAAA,12.6 % of maximum
AAAAAAATCTTTGCGTCGAGATTCTTAAAA,17 % of maximum
AAAAAACTAGGTATCGGTAGGCGCCGAAAA,14.2 % of maximum
AAAAAATCGGGCCCCGTTAGCACTCTAAAA,15.8 % of maximum
AAAAAATGTGCCCGTGTGTGCTCGCGAAAA,13.8 % of maximum
AAAAAAAGTTACCAGTACGCGTCGGGAAAA,15.7 % of maximum
AAAAAAGTCATTATAACCCAAACTCTAAAA,42.7 % of maximum
AAAAAATGGGGCTCTGGCCCACCGTAAAAA,22.3 % of maximum
AAAAAAGGCTCCGGCCCCCAATCGCAAAAA,11.1 % of maximum
AAAAAAGGCCTTCGCTCGTGTTTACGAAAA,11.6 % of maximum
AAAAAACGCTCCGTTTTTGCAATGCGAAAA,12 % of maximum
AAAAAACAGGCCGATTCCGATCCCGGAAAA,18.1 % of maximum

# Series 6 — technique: protein binding microarray; molecule type: double-stranded DNA, one strand shown; matrix: in vitro; concentration: not given; relative to: not given; direction: higher = stronger binding
# Target: Histone acetyltransferase KAT6A, winged helix 1, GST fusion (KAT6A, Homo sapiens, UniProt Q92794, residues 1-85)
# Notes: 8-mer, flanks averaged, mean of 2 arrays, mostly near background
# Residues (chain): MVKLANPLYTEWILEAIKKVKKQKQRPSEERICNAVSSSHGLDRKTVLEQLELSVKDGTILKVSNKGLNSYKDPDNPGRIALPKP
Sequence,E-score
CACCGTGG,-0.0011
ACTATTCG,-0.155
GTAGGCCA,-0.131
AACGATTG,-0.106
GCGTCCTA,0.142
ACCCAACG,-0.194
TGAATGAA,-0.242
GAGTCGCA,-0.0499
CCCTCTGA,-0.0998
ATATTGCC,0.00629
GCGGTTCC,0.251
ATCATATA,-0.13
GTGACAAA,-0.139
AAGCCCGT,0.224
AGGTACCC,-0.0955
GCAACTTA,-0.102
CGATATCC,-0.0461

# For quick reference, copied from above (series 1):
Modification,mean fluorescence intensity
2'F-ANA at 2 4 5 8 11 13 15,58.1 a.u.
2'F-ANA at 1 2 3 8 9 12 14 15,102 a.u.
2'F-ANA at 1 4 8 12 14,62.6 a.u.
2'F-ANA at 2 3 5 6 7 9 12,171 a.u.
2'F-ANA at 1 3 4 5 6 8 11 15,87.8 a.u.
2'F-ANA at 1 2 3 5 8 9 11 12 14,53.7 a.u.
2'F-ANA at 1 2 5 6 7 8 11 12 15,110 a.u.
2'F-ANA at 2 4 5 7 9 10 11 12 13 15,52.6 a.u.
2'F-ANA at 2 3 4 6 7 8 11 13 14 15,302 a.u.
2'F-ANA at 4 7 10 12 13,105 a.u.
2'F-ANA at 1 3 4 5 6 7 9 10 11 12 13 14,49 a.u.
2'F-ANA at 1 4 5 6 14,45.2 a.u.
2'F-ANA at 1 2 5 6 11 13 14 15,49.7 a.u.
2'F-ANA at 1 4 5 6 8 9 10 13 15,48.4 a.u.
2'F-ANA at 3 4 6 8 12,1010 a.u.
